{"data": "Measurements collected from several papers", "Maoa": "Amine oxidase [flavin-containing] A (Maoa, Rattus norvegicus, UniProt P21396)", "GAP50": "Glideosome-associated protein 50 (GAP50, Plasmodium falciparum, UniProt Q8I2X3)", "FFAR4": "Free fatty acid receptor 4 (FFAR4, Homo sapiens, UniProt Q5NUL3)", "Kir3.1/Kir3.2": "Kir3.1/Kir3.2 (Homo sapiens, UniProt P48051+P48549)", "TRPM8": "Transient receptor potential cation channel subfamily M member 8 (TRPM8, Homo sapiens, UniProt Q7Z2W7)", "NADH dehydrogenase [ubiquinone] iron-sulfur protein 7, mitochondrial/NADH dehydrogenase [ubiquinone] iron-sulfur protein 2, mitochondrial/MT-ND1": "NADH dehydrogenase [ubiquinone] iron-sulfur protein 7, mitochondrial/NADH dehydrogenase [ubiquinone] iron-sulfur protein 2, mitochondrial/MT-ND1 (Homo sapiens, UniProt O75251+O75306+P03886)", "CAMK1D": "Calcium/calmodulin-dependent protein kinase type 1D (CAMK1D, Homo sapiens, UniProt Q8IU85)", "T1": "ssDNA, aptamer; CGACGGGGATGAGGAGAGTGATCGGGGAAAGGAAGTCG", "note": "Lines come from different studies, so protocols differ. Several values in a cell are separate wells, animals, samples, runs or records. ± marks the error that the study gave."}
{"Structure (SMILES)": "Nc1ncnc2c1ncn2[C@@H]1O[C@H](COP(=O)(O)OP(=O)(O)OP(=O)(O)O)[C@@H](O)[C@H]1O", "target": "Hexokinase-3 (HK3, Homo sapiens, UniProt P52790, N221A)", "assay": "substrate", "setting": "mutant N221A, together with: glucose 0.5 mM", "endpoint": "Km", "result": "1700 ± 100 µM"}
{"Structure (SMILES)": "NCc1ccc(Br)cc1", "target": "Maoa", "assay": "substrate", "test system": "rat", "setting": "pH 9.0, α,α-protio substrate", "endpoint": "kcat", "result": "2.85 ± 0.0233 s⁻¹"}
{"Structure (SMILES)": "CN(CCCCCCNC(=O)COc1ccc(C2CCC(=O)NC2=O)cc1)Cc1cn(Cc2ccc(C(=O)NO)cc2)c2ccccc12.O=C(O)C(F)(F)F (stereo not drawn)", "target": "HDAC10 (Homo sapiens, UniProt Q969S8)", "assay": "degrader, western blot", "test system": "MM1.S", "setting": "5 µM, 24 h", "endpoint": "degradation", "result": "56%"}
{"Structure (SMILES)": "Cc1nnc(NCc2cccc(Cl)c2)c2ccccc12", "target": "GAP50", "assay": "binding, surface plasmon resonance", "setting": "1:1 binding model", "endpoint": "koff", "result": "1.73 s⁻¹"}
{"Structure (SMILES)": "Nc1nc2ccccc2[nH]1", "target": "HVCN1 (Homo sapiens, UniProt Q96D96, F150A)", "assay": "proton current, inhibitor, inside-out patch clamp", "endpoint": "Hill coefficient", "result": "1.08 ± 0.04"}
{"Structure (SMILES)": "CCCCCCCCNc1cc(=O)n(C)c(=O)n1C", "target": "FFAR4", "assay": "antagonist, β-arrestin recruitment", "test system": "CHO cells", "setting": "10 µM, together with: 4 µM TUG-891", "endpoint": "inhibition", "result": "30 ± 3%"}
{"Structure (SMILES)": "C=CC(=O)N1CCC[C@@H](n2nc(-c3ccc(Oc4ccccc4)cc3)c3c(N)ncnc32)C1", "target": "CSNK1A1L (Homo sapiens, UniProt Q8N752)", "setting": "0.1 µM", "endpoint": "remaining activity", "result": "75.3%"}
{"Structure (SMILES)": "Nc1nc2c(ncn2[C@@H]2O[C@@H]3COP(=O)(O)O[C@H]4[C@@H](O)[C@H](n5cnc6c(=O)[nH]c(N)nc65)O[C@@H]4COP(=O)(O)O[C@H]3[C@H]2O)c(=O)[nH]1", "target": "Cell cycle histidine kinase CckA, CA domain (Caulobacter vibrioides, UniProt Q9X688)", "assay": "ITC", "setting": "together with: AMPPNP 5 mM", "endpoint": "ΔH", "result": "2.04 ± 0.0631 kcal/mol"}
{"Structure (SMILES)": "O=C(COc1cc(Cl)ccc1Cl)Nc1cc(C2CCC2)nn1CC(F)(F)F", "target": "Kir3.1/Kir3.2", "assay": "thallium flux, activator", "test system": "HEK293", "scale": "relative to: standard compound", "endpoint": "Emax", "result": "36%"}
{"Structure (SMILES)": "Nc1nc2c(ncn2[C@@H]2O[C@H](COP(=O)(O)O)[C@@H](O)[C@H]2O)c(=O)[nH]1", "target": "GUK1 (Homo sapiens, UniProt Q16774, S13A)", "assay": "binding, ITC", "endpoint": "ΔH", "result": "-6.58 ± 0.38 kcal/mol"}
{"Structure (SMILES)": "NCc1ccccc1", "target": "Maoa", "setting": "pKa-corrected", "endpoint": "log Kd", "result": "-5.2 M"}
{"Structure (SMILES)": "N=C(N)c1ccc(OCCCCCOc2ccc(C(=N)N)cc2)cc1", "target": "GAP50", "assay": "binding, surface plasmon resonance", "setting": "1:1 binding model", "endpoint": "kon", "result": "39300 M⁻¹ s⁻¹"}
{"Structure (SMILES)": "Nc1ncnc2c1ncn2[C@@H]1O[C@H](COP(=O)(O)CP(=O)(O)OP(=O)(O)O)[C@@H](O)[C@H]1O", "target": "P2X purinoceptor 1 (P2RX1, Homo sapiens, UniProt P51575, K140A)", "assay": "calcium influx", "setting": "10 nM", "scale": "relative to: ionomycin response", "endpoint": "calcium influx", "result": "0% and 0.0282%"}
{"Structure (SMILES)": "C#CCN(CCCN1CCN(C2CCCCC2)CC1)CC(=O)Nc1ccc(C(=O)c2ccccc2)cc1", "target": "TMEM97 (Homo sapiens, UniProt Q5BJF2)", "assay": "radioligand binding", "test system": "RT-4 cell membranes", "scale": "relative to: sigma1 Ki over sigma2 Ki", "endpoint": "Ki ratio", "result": 8.03}
{"Structure (SMILES)": "CCc1cc(NC(=O)COc2ccc(C(F)(F)F)cc2C(F)(F)F)n(CC(F)(F)F)n1", "target": "Kir3.1/Kir3.2", "assay": "thallium flux, activator", "test system": "HEK293", "scale": "relative to: standard compound", "endpoint": "Emax", "result": "84%"}
{"Structure (SMILES)": "CCNc1cc(=O)[nH]c(=O)[nH]1", "target": "FFAR4", "assay": "agonist, β-arrestin recruitment", "test system": "CHO cells", "setting": "10 µM", "endpoint": "activation", "result": "1%"}
{"Structure (SMILES)": "CC1=C(/C=C\\C2=CCC[C@]3(C)[C@@H]([C@H](C)CCCC(C)C)CC[C@@H]23)C[C@@H](O)CC1", "target": "Cholesterol side-chain cleavage enzyme, mitochondrial (Bos taurus, UniProt P00189)", "assay": "substrate, HPLC", "setting": "20 µM, 37 °C, together with: 2-hydroxypropyl-beta-cyclodextrin 0.9%", "endpoint": "initial metabolism rate", "result": "~3 mol/min/mol enzyme"}
{"Structure (SMILES)": "O=C(Nc1ccc2ccccc2n1)Nc1cccs1", "target": "3-oxoacyl-[acyl-carrier-protein] reductase FabG (fabG, Pseudomonas aeruginosa, UniProt O54438)", "assay": "enzyme activity, inhibitor, NADPH fluorescence", "setting": "reverse reaction, together with: 3-OH-decanoyl-NAC, NADP", "endpoint": "Hill slope", "result": 1.2}
{"Structure (SMILES)": "CN1CCN(c2cc(-c3ccncc3)c(-c3ccc4ccccc4c3)nn2)CC1", "target": "PTH2R (Homo sapiens, UniProt P49190)", "assay": "agonist, FLIPR", "setting": "12.5 µM", "endpoint": "activation", "result": "1.5%"}
{"Structure (SMILES)": "CCCCc1c(-c2ccc(O)cc2)[nH]c2nccnc12", "target": "TRPM8", "assay": "antagonist", "test system": "HEK293", "setting": "5 µM", "scale": "relative to: control", "endpoint": "remaining activity", "result": "96.1 ± 13.2%"}
{"Structure (SMILES)": "NC(=O)NOCCCCCCCCCC[P+](c1ccccc1)(c1ccccc1)c1ccccc1.O=C([O-])C(F)(F)F", "target": "NADH dehydrogenase [ubiquinone] iron-sulfur protein 7, mitochondrial/NADH dehydrogenase [ubiquinone] iron-sulfur protein 2, mitochondrial/MT-ND1", "assay": "complex I-dependent respiration, Seahorse XF96", "test system": "HCT-116", "setting": "0.1 µM, 24 h", "scale": "relative to: control", "endpoint": "oxygen consumption rate", "result": "104.1 ± 0.13%"}
{"Structure (SMILES)": "O=c1nc(SCc2cc(F)cc(C(F)(F)F)c2)nc(SCc2ccc3nc(Cl)ccc3c2)[nH]1", "target": "TOP2A (Homo sapiens, UniProt P11388)", "assay": "DNA cleavage", "setting": "15.6 µM", "endpoint": "mean linear DNA", "result": "0%"}
{"Structure (SMILES)": "NC(=O)NOCCCCCCCCCCCCCC[P+](c1ccccc1)(c1ccccc1)c1ccccc1.O=C([O-])C(F)(F)F", "target": "NADH dehydrogenase [ubiquinone] iron-sulfur protein 7, mitochondrial/NADH dehydrogenase [ubiquinone] iron-sulfur protein 2, mitochondrial/MT-ND1", "assay": "complex I-dependent respiration, Seahorse XF96", "test system": "HCT-116", "setting": "1.5 µM, 24 h", "scale": "relative to: control", "endpoint": "oxygen consumption rate", "result": "47.6 ± 11.2%"}
{"Structure (SMILES)": "Nc1ncnc2c1ncn2[C@@H]1O[C@H](COP(=O)(O)OP(=O)(O)OP(=O)(O)O)[C@@H](O)[C@H]1O", "target": "T1, ssDNA, aptamer", "assay": "ITC", "endpoint": "Kd", "result": "1.1 µM"}
{"Structure (SMILES)": "N=C(NO)NCC[C@H](N)C(=O)O", "target": "Arginase (Schistosoma mansoni, UniProt Q6WVP6)", "assay": "isothermal titration calorimetry", "setting": "concentration not given", "endpoint": "binding enthalpy", "result": "-16 ± 0.3 kcal/mol"}
{"Structure (SMILES)": "O=c1cc(NCCc2ccc(Cl)cc2)[nH]c(=O)[nH]1", "target": "FFAR4", "assay": "agonist, β-arrestin recruitment", "test system": "CHO cells", "setting": "10 µM", "endpoint": "activation", "result": "0%"}
{"Structure (SMILES)": "CC[C@@H]1[C@H](F)C(=O)N[C@@H]1COc1nccc2cc(C(N)=O)c(OC)cc12", "target": "CAMK1D", "assay": "ATP-site probe binding, ActivX profiling", "test system": "THP-1 cell lysate", "setting": "0.04 mM, Lys1 site", "endpoint": "inhibition", "result": "5.4%"}
{"Structure (SMILES)": "N#Cc1c(NC(=O)c2cccc3ccccc23)sc2c1CCCC2", "target": "TRPM8", "assay": "antagonist", "test system": "HEK293", "setting": "5 µM", "scale": "relative to: control", "endpoint": "remaining activity", "result": "76.9 ± 7.79%"}
{"Structure (SMILES)": "C=CC(=O)N1CCC(COCC(=O)N2CCN(c3nc(-c4cnc(N)nc4C(F)F)nc(N4CCOC[C@@H]4C)n3)CC2)CC1", "target": "CAMK1D", "assay": "KINOMEscan", "setting": "1 µM", "endpoint": "remaining binding", "result": "100%"}
{"Structure (SMILES)": "O=C(O)CCCCCCCNc1cc(=O)[nH]c(=O)[nH]1", "target": "FFAR4", "assay": "agonist, β-arrestin recruitment", "test system": "CHO cells", "setting": "10 µM", "endpoint": "activation", "result": "0%"}
{"Structure (SMILES)": "c1coc(CNc2nc(N3CCCCC3)nc3ccccc23)c1", "target": "GAP50", "assay": "binding, surface plasmon resonance", "setting": "1:1 binding model", "endpoint": "kon", "result": "38800 M⁻¹ s⁻¹"}
{"Structure (SMILES)": "O=Nc1c(NCCc2ccccc2)[nH]c(=O)[nH]c1=O", "target": "FFAR4", "assay": "agonist, β-arrestin recruitment", "test system": "CHO cells", "setting": "10 µM", "endpoint": "activation", "result": "1 ± 1%"}
{"Structure (SMILES)": "Cc1cc2c(c(=O)[nH]1)C(=O)O/C2=C\\c1ccccc1Cl", "target": "Dual specificity calcium/calmodulin-dependent 3',5'-cyclic nucleotide phosphodiesterase 1C, isoform PDE1C2 (PDE1C, Homo sapiens, UniProt Q14123)", "assay": "enzyme activity, inhibitor", "setting": "together with: 3H-cGMP substrate", "endpoint": "binding free energy", "result": "-8.47 kcal/mol"}
